Measured values gathered from unrelated publications.
Parts stem from different laboratories: compare values within a part only. Several values in a cell are separate wells, animals, samples, runs or records.

Set 1 — cell line: U-87 MG; tested at: concentration not given; baseline: DMSO
Structure (SMILES): CCN1/C(=C/C=C2\CCCC(/C=C/C3=[N+](CC)c4ccccc4C3(C)C)=C2NCCCCCCCCN2CCC(Nc3nc4ccccc4n3Cc3ccc(F)cc3)CC2)C(C)(C)c2ccccc21
refers to	log2 fold change
MYO3B mRNA	-2.56
KNSTRN mRNA	-1.03
KDM6B mRNA	1.36
CBX5 mRNA	-1.31
BEAN1 mRNA	-2.1
CORO2B mRNA	0.821
RCCD1 mRNA	-0.904
CACHD1 mRNA	1.32
APCDD1L mRNA	-1.58

Set 2 — read-out: thermal unfolding; technique: differential scanning fluorimetry; tested at: 5.5 µM; reading: higher = more unfolded
Structure (SMILES): C[C@@H]1CN(c2ccc(-c3cc(C(=O)NCCOCCOCCOCCOCCNC(=O)Cn4cc(-c5[nH]cc(C(=O)N[C@@H](CC(N)=O)c6ccc(F)c(Cl)c6)c5-c5ccc(Cl)cc5F)cn4)ccc3F)cc2NC(=O)c2c[nH]c(=O)cc2C(F)(F)F)C[C@H](C)N1C
DCAF1: DDB1- and CUL4-associated factor 1 (DCAF1, Homo sapiens, UniProt Q9Y4B6)
Chain of UniProt Q9Y4B6 (whole entry, looked up): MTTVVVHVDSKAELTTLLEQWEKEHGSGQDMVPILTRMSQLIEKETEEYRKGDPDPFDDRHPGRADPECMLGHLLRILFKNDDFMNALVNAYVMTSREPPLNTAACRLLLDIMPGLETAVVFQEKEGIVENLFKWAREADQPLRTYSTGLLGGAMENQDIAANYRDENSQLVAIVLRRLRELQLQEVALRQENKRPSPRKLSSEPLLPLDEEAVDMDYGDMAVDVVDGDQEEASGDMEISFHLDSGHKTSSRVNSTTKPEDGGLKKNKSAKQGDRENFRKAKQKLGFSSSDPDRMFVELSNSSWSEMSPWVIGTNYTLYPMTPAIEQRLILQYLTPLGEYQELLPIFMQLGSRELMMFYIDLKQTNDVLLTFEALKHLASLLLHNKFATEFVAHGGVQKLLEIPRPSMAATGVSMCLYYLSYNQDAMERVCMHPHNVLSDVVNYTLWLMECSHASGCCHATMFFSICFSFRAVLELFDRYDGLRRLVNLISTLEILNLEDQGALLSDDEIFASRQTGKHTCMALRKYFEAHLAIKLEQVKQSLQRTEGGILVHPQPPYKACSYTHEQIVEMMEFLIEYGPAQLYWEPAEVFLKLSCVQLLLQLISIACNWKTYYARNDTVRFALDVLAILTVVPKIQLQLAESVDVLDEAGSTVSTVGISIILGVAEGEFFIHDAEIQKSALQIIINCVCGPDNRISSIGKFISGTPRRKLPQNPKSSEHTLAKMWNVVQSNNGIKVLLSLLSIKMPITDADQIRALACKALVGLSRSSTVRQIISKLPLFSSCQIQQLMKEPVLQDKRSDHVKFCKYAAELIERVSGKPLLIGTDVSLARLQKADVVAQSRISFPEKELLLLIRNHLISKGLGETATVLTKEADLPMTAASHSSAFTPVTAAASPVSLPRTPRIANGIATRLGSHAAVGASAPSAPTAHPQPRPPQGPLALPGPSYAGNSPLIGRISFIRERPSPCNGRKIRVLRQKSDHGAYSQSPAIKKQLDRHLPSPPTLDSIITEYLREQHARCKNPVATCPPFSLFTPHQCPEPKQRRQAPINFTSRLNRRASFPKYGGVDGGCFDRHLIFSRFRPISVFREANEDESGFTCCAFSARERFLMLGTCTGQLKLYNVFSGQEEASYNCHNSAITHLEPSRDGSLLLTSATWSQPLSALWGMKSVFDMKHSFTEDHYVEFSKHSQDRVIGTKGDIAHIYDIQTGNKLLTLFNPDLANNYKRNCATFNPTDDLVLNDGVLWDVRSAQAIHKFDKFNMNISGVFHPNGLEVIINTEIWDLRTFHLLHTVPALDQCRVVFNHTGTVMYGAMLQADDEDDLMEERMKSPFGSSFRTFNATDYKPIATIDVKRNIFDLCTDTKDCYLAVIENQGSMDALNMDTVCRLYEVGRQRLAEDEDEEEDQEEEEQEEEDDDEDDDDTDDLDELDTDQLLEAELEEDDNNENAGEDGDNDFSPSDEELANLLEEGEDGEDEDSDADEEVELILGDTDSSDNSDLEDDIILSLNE
WDR5: WD repeat-containing protein 5 (WDR5, Homo sapiens, UniProt P61964)
target	temperature	SYPRO Orange fluorescence
DCAF1	94.01 °C	30900 a.u.
WDR5	32.6 °C	14400 a.u.
DCAF1	46.6 °C	13000 a.u.
DCAF1	84.61 °C	40200 a.u.
WDR5	60.21 °C	10300 a.u.
WDR5	69.41 °C	6740 a.u.

Mixed results
SLC6A19: Sodium-dependent neutral amino acid transporter B(0)AT1 (SLC6A19, Homo sapiens, UniProt Q695T7)
Chain of UniProt Q695T7 (whole entry, looked up): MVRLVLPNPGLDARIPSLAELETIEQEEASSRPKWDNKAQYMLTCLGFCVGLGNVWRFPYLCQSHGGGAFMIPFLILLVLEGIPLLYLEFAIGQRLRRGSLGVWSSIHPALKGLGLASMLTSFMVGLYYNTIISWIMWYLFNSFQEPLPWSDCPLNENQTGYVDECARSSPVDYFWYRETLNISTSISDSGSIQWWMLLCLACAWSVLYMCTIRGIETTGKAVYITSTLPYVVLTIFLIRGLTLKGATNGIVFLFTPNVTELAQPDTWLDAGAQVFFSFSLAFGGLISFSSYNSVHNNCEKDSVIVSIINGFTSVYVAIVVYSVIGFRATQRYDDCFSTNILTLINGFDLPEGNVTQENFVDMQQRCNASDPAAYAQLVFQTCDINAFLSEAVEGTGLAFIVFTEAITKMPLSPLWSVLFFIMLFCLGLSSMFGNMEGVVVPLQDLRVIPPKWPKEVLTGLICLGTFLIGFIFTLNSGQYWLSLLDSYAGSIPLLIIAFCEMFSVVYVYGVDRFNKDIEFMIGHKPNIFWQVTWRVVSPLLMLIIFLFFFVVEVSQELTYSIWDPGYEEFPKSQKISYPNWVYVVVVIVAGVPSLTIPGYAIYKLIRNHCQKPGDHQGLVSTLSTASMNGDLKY
Structure (SMILES)	target or system	assay	system	setting	how to read	endpoint	result
Cc1cc(OCC(=O)CC(C)C)cc(C)c1Cl	SLC6A19	membrane potential, FLIPR membrane potential	CHO-BC cells	concentration not given, first screen	baseline: uninhibited control	normalised transport activity	1.27 and 0.854 and 0.971 and 1.13
Cc1nc(C)c(C=[N+]([O-])C(C)(C)C)nc1C		footprint test	MPTP-induced Parkinson's disease mouse model	10 mg/kg		stride length	5.39 cm and 5.61 cm and 5.93 cm and 6.81 cm and 7.3 cm and 6.45 cm and 7.65 cm and 6.23 cm
CON(C)C(=O)COc1cc(C)c(Cl)c(C)c1	SLC6A19	inhibitor, FLIPR membrane potential	CHO-BC cells	30 µM		normalised transport activity	1.05
Cc1ncsc1-c1ccc(C(CO)NC(=O)C2CC(O)CN2C(=O)C(C(C)C)n2cc(-c3ccc(COc4c(-c5c(C)c(F)cc6[nH]ncc56)c(C5CC5)cc5c(N6CC7CC6CN7)nc(OC6CCOCC6)nc45)cc3)nn2)cc1 (stereo not shown)			male Balb/c nu/nu mouse, PK-59 xenograft, plasma	intravenous, 10 mg/kg, 2 h		concentration	3280 ng/mL and 1250 ng/mL and 2040 ng/mL

A few entries again (set 2):
target	temperature	SYPRO Orange fluorescence
WDR5	32.6 °C	14400 a.u.
WDR5	69.41 °C	6740 a.u.
